Measurements gathered from unrelated publications.
Compare with care: the assays were run in different laboratories. ± marks the error that the study gave.

| SMILES | organism | test | test system | conditions | how to read | quantity | value |
| --- | --- | --- | --- | --- | --- | --- | --- |
| O=[N+]([O-])c1ccc(NC2CCNCC2)c(C(F)(F)F)c1 | Salmonella typhimurium | genotoxicity, SOS/umu test | TA1535/pSK1002 | 0.008 mg/mL, 4 h, without S9, full range | – | induction factor | 0.6 |
| Cc1cc(C(=O)NC(C)(C)COc2cccc3c2C(N)=NS(=O)(=O)N3)cc(C)n1 | Salmonella typhimurium | Ames test, initial | TA1537 | 150 µg/plate | relative to: solvent control | revertant ratio | 1.2 |
| OC(CCN1CC=C(c2ccc(F)cc2)CC1)c1ccc(F)c2ccccc12 (centres unmarked) | Salmonella typhimurium | SOS/umu test | TA1535/pSK1002 | 0.001 mg/mL, 4 h, without S9 activation | – | survival | 103% |
| N#C[C@@]1(n2ccc(N)nc2=O)O[C@H](CO)[C@@H](O)[C@H]1O | Salmonella typhimurium | – | TA1537 | 600 nM, without S9 | – | viability | 98% |
| O=C1CCC(N2C(=O)c3ccccc3C2=O)C(=O)N1 (centres unmarked) | human coronavirus OC43 | virus-induced cell killing | MRC-5 | maximum over 10 doses | – | maximum inhibition | 0% |
| CNC(=O)c1c(N(C)N=O)ncn1C | Salmonella typhimurium | plate incorporation | TA100, water | 50 µg/plate, without S9 | – | revertant colonies per plate | 196 ± 6 |
| CC(=O)N1CCC(C(=O)N2CCN3C(=O)c4cc(-c5ccccc5)ccc4NC(=O)C3C2)CC1 (centres unmarked) | Salmonella typhimurium | – | TA98 | 50 µg/plate, together with: rat liver S9 | relative to: vehicle | fold increase in revertants | 1.1 |
| COc1cccc(-c2n[nH]c(SCc3ccccn3)n2)c1OC | Salmonella typhimurium | Ames test, preincubation | TA1535 | 1.0 mg/plate, with rat liver S9 | – | revertant colonies per plate | 11 |
| CN(CC(C)(C)C)N=O | Salmonella typhimurium | mutagenicity, Ames plate incorporation | TA98 | 150 µg/plate, without S9, methanol | – | revertant colonies per plate | 22.3 ± 7 |
| O=[N+]([O-])c1ccc(N2CCN(CCC(O)c3ccc(F)cc3)CC2)c(C(F)(F)F)c1 (centres unmarked) | Salmonella typhimurium | genotoxicity, SOS/umu test | TA1535/pSK1002 | 0.125 mg/mL, 4 h, with S9, full range | – | induction factor | 1.1 |
| COc1ccc(-c2ccc3c(N4CCOC[C@@H]4C)nc(N4CCOC[C@@H]4C)nc3n2)cc1CO | human coronavirus OC43 | virus-induced cell killing | MRC-5 | maximum over 10 doses | – | maximum inhibition | 0% |
